Measured values gathered from unrelated publications.
Several values in a cell are separate wells, animals, samples, runs or records. pIC50: −log10 of the molar value.
Cell line: HaCaT

`COC(=O)C=Cc1ccc(OC)c(OC)c1` has a subcytotoxic concentration of 50 µM (MTT; 24 h, 10% FBS).
With `O=C1CCP(=S)(c2ccccc2)CC1` the viability was 73% (trypan blue; IC50, 72 h).
`CC[C@H](C)[C@H](NC(=O)[C@H](CCCCN)NC(=O)[C@H](CO)NC(=O)CNC(=O)[C@H](CC(C)C)NC(=O)[C@@H](N)Cc1c[nH]c2ccccc12)C(=O)N[C@@H](CCCCN)C(=O)N[C@@H](C)C(=O)N[C@@H](C)C(=O)N[C@@H](CCCCN)C(=O)N[C@@H](CCSC)C(=O)N[C@@H](CCCCN)C(=O)N[C@H](C(=O)NCC(=O)N[C@@H](CCSC)C(=O)N[C@@H](Cc1c[nH]c2ccccc12)C(=O)NCC(=O)N[C@@H](C)C(=O)N[C@H](C(=O)NCC(=O)N[C@@H](CC(C)C)C(=O)N[C@@H](CCCNC(=N)N)C(=O)N[C@@H](Cc1c[nH]cn1)C(=O)N[C@@H](CC(N)=O)C(=O)O)C(C)C)C(C)C` gave a pIC50 of under 3.70 (cytotoxicity, MTT; 24 h, 37 °C).
`COc1cc2ncnc(Nc3cccc(Cl)c3)c2cc1OC` has a viability of 26.9% and 14.8% and 13.7% (33.33 µM, 60 h).
For `CC[C@H](C)[C@H](N)C(=O)N[C@H](C(=O)N[C@@H](C)C(=O)N[C@H](C(=O)N[C@H](C(=O)N[C@@H](CCCNC(=N)N)C(=O)N[C@@H](Cc1ccccc1)C(=O)N[C@@H](CO)C(=O)N[C@@H](CCCNC(=N)N)C(=O)N[C@@H](CCCNC(=N)N)C(=O)N[C@@H](CCCCN)C(=O)N[C@H](C(=O)N1CCC[C@H]1C(=O)N[C@@H](Cc1c[nH]c2ccccc12)C(=O)N[C@@H](CCC(N)=O)C(=O)N[C@@H](CCC(N)=O)C(=O)N[C@@H](CC(N)=O)C(=O)N[C@@H](Cc1ccccc1)C(=O)N[C@H](C(=O)N[C@@H](CC(N)=O)C(=O)N[C@@H](CC(N)=O)C(=O)N[C@@H](Cc1c[nH]cn1)C(=O)N[C@@H](CC(N)=O)C(=O)N1CCC[C@H]1C(=O)N[C@@H](CCCCN)C(=O)NCC(=O)N[C@@H](CCCNC(=N)N)C(=O)N[C@@H](CC(C)C)C(=O)N[C@@H](CCCNC(=N)N)C(=O)N[C@@H](CC(N)=O)C(=O)N[C@@H](CCC(N)=O)C(=O)N[C@@H](Cc1c[nH]cn1)C(=O)N[C@@H](CCCCN)C(=O)N[C@H](C(=O)N[C@@H](CO)C(=O)N[C@@H](CC(C)C)C(=O)N[C@@H](CCC(N)=O)C(=O)N[C@@H](CCCCN)C(=O)N[C@@H](CO)C(=O)N[C@H](C(=O)N[C@@H](C)C(=O)N[C@H](C(=O)N[C@@H](CCSC)C(=O)N[C@@H](CC(C)C)C(=O)N1CCC[C@H]1C(=O)N[C@@H](CCCCN)C(=O)O)C(C)C)[C@@H](C)O)C(C)C)C(C)C)[C@@H](C)CC)[C@@H](C)O)[C@@H](C)CC)[C@@H](C)CC`, the CC50 was 47.4 µM (cell viability, MTT; 24 h).
With `CC(=O)Oc1ccc(C=CC(=O)O)cc1OC(C)=O` the subcytotoxic concentration was 50 µM (MTT; 24 h, 10% FBS).
`CC[C@H](C)[C@H](NC(=O)[C@H](CCC(N)=O)NC(=O)[C@H](CCCCN)NC(=O)[C@H](CCSC)NC(=O)[C@H](CO)NC(=O)[C@H](CCC(=O)O)NC(=O)[C@H](CCC(N)=O)NC(=O)[C@@H]1CCCN1C(=O)[C@H](CS)NC(=O)[C@@H](NC(=O)[C@H](CCCCN)NC(=O)[C@@H](NC(=O)CNC(=O)[C@@H](NC(=O)[C@@H]1CCCN1C(=O)[C@H](Cc1ccccc1)NC(=O)[C@H](Cc1ccccc1)NC(=O)[C@H](C)NC(=O)[C@H](CO)NC(=O)[C@H](CCCNC(=N)N)NC(=O)[C@H](CCCCN)NC(=O)[C@@H](NC(=O)[C@H](CCCNC(=N)N)NC(=O)[C@H](Cc1c[nH]cn1)NC(=O)[C@H](CCCCN)NC(=O)[C@H](C)NC(=O)[C@H](CC(C)C)NC(=O)[C@H](CC(=O)O)NC(=O)[C@H](Cc1ccccc1)NC(=O)[C@@H](NC(=O)[C@H](CCCNC(=N)N)NC(=O)[C@H](CCCNC(=N)N)NC(=O)[C@H](CCSC)NC(=O)[C@@H](NC(=O)[C@H](CO)NC(=O)[C@H](CCSC)NC(=O)[C@H](CCCCN)NC(=O)[C@H](Cc1ccc(O)cc1)NC(=O)[C@H](CCSC)NC(=O)[C@@H](N)CCCCN)[C@@H](C)O)[C@@H](C)CC)[C@@H](C)O)[C@@H](C)O)C(C)C)C(C)C)C(=O)N[C@@H](CC(C)C)C(=O)O` gave a CC50 of 48.7 µM (cell viability, MTT).
For `CC[C@H](C)[C@H](NC(=O)[C@H](CCCCN)NC(=O)[C@H](CCC(N)=O)NC(=O)[C@@H](NC(=O)[C@@H](NC(=O)[C@H](CCCNC(=N)N)NC(=O)[C@H](CCCCN)NC(=O)[C@H](Cc1ccccc1)NC(=O)CN)[C@@H](C)CC)C(C)C)C(=O)N[C@@H](CCCNC(=N)N)C(=O)N[C@@H](CC(=O)O)C(=O)N[C@@H](Cc1ccccc1)C(=O)N[C@@H](CC(C)C)C(=O)N[C@@H](CCCNC(=N)N)C(=O)N[C@@H](CC(N)=O)C(=O)N[C@@H](CC(C)C)C(=O)N[C@H](C(N)=O)C(C)C`, the LC50 was 40 µM (cell viability, MTS; 1 h, 37 °C, 10% FBS).

Excerpt of the above:
`COC(=O)C=Cc1ccc(OC)c(OC)c1` has a subcytotoxic concentration of 50 µM (MTT; 24 h, 10% FBS).
